{"data": "Measured values from different studies", "note": "Values joined by “and” are separate records of one study, mostly repeats; a detail may differ."}
{"Compound": "O=c1cc(-c2ccc(O)cc2)oc2c([C@@H]3OC[C@H](O)[C@H](O)[C@H]3O)c(O)c([C@@H]3O[C@H](CO)[C@@H](O)[C@H](O)[C@H]3O)c(O)c12", "assay": "measured: phosphorylation", "test system": "mice, cardiac CaMKII-δ overexpression (AAV9)", "conditions": "dose not given", "quantity": "CaMKII-δ activity", "result": "inhibited"}
{"Compound": "N=C(N)NCCC[C@H](NC(=O)CCCCCNC(=O)[C@H](CCCNC(=N)N)NC(=O)[C@H](CCCNC(=N)N)NC(=O)CCCCCNC(=O)[C@H](CCCNC(=N)N)NC(=O)[C@H](CCCNC(=N)N)NC(=O)CCCCCNC(=O)[C@H](CCCNC(=N)N)NC(=O)[C@H](CCCNC(=N)N)NC(=O)CCCCCNC(=O)[C@@H](N)CCCNC(=N)N)C(=O)NCCCCCC(=O)NCCC(=O)O", "assay": "broth microdilution", "test system": "ATCC 1720 resistant strain, Mueller-Hinton broth", "quantity": "MIC", "result": "48 µM"}
{"Compound": "CCCCC1(CCCC)CN(c2ccccc2)c2cc(SC)c(OCC(=O)N[C@@H](C(=O)NCC(=O)O)c3ccccc3)cc2S(=O)(=O)C1", "assay": "measured: HDL cholesterol", "test system": "human, serum", "conditions": "10 mg once daily, day 8", "quantity": "serum HDL-C", "result": "49 mg/dL"}
{"Compound": "C[C@H]1O[C@@H](O[C@H]2CC[C@@]3(C)[C@@H](CC[C@]4(C)[C@@H]3C=C[C@]35OC[C@@]6(CCC(C)(C)C[C@H]63)[C@@H](O)C[C@]54C)[C@]2(C)CO)[C@H](O)[C@@H](O[C@@H]2O[C@H](CO)[C@@H](O)[C@H](O)[C@H]2O)[C@H]1O", "assay": "measured: CPT-1α", "test system": "ethanol-fed mice, hepatic SIRT1 knockdown (AAV8-TBG-SIRT1), liver", "conditions": "dose not given, high dose, unit not given", "scale": "baseline: AAV8-TBG-Null ethanol group", "quantity": "mRNA level", "result": "0.97 and 0.74 and 0.9 and 0.81 and 1.16"}
{"Compound": "Clc1cc2c(cc1Cl)Oc1cc(Cl)c(Cl)cc1O2", "test system": "female Sprague-Dawley rat, liver", "conditions": "dose not given", "scale": "baseline: vehicle", "quantity": "N-acetyl-LTE4 level", "result": "2.1 fold"}
{"Compound": "[131I-].[Na+]", "assay": "ATA response criteria", "test system": "human, papillary thyroid cancer, distant metastases", "conditions": "3700 MBq", "quantity": "biochemical incomplete response", "result": "13.6%"}
{"Compound": "CNCCCN1c2ccccc2CCc2ccccc21", "tested on": "Plasmodium falciparum", "test system": "GB4", "quantity": "IC50", "result": "10 µM"}
{"Compound": "CC[C@H](C)[C@@H]1NC(=O)[C@@H]2CCCN2C(=O)[C@H](CC(C)C)NC(=O)[C@H](CC(C)C)NC(=O)CNC(=O)[C@@H](NC(=O)[C@@H](NC(=O)[C@H](CC(=O)O)NC(=O)CNC(=O)[C@@H](NC(=O)[C@H](C)NC(=O)CNC(=O)[C@H](CCCCN)NC(=O)[C@H](CC(C)C)NC(=O)[C@H](CC(C)C)NC(=O)[C@H](CCCCN)NC(=O)CNC(=O)[C@@H](NC(=O)[C@@H](N)CC(C)C)C(C)C)C(C)C)C(C)C)CSSC[C@@H](C(=O)O)NC1=O", "assay": "RNA-seq, measured: Prkab1", "test system": "mouse, traumatic brain injury model, frontal cortex and hippocampus", "conditions": "dose not given", "scale": "baseline: TBI alone", "quantity": "log2 fold change", "result": -0.791}
{"Compound": "N=C(N)NC(=N)Nc1cccc(Cl)c1", "tested on": "Plasmodium falciparum", "test system": "7G8", "quantity": "IC50", "result": "10 µM"}
{"Compound": "O=C1OC[C@@H](O)[C@H]1O", "assay": "binding, MIDAS equilibrium dialysis LC-MS", "test system": "A2AR-BRIL thermostabilized", "conditions": "concentration not given", "scale": "baseline: no-protein control", "quantity": "log2 fold change", "result": 0.759}
{"note": "Repeated from above:"}
{"Compound": "N=C(N)NCCC[C@H](NC(=O)CCCCCNC(=O)[C@H](CCCNC(=N)N)NC(=O)[C@H](CCCNC(=N)N)NC(=O)CCCCCNC(=O)[C@H](CCCNC(=N)N)NC(=O)[C@H](CCCNC(=N)N)NC(=O)CCCCCNC(=O)[C@H](CCCNC(=N)N)NC(=O)[C@H](CCCNC(=N)N)NC(=O)CCCCCNC(=O)[C@@H](N)CCCNC(=N)N)C(=O)NCCCCCC(=O)NCCC(=O)O", "assay": "broth microdilution", "test system": "ATCC 1720 resistant strain, Mueller-Hinton broth", "quantity": "MIC", "result": "48 µM"}
